Results gathered from unrelated publications.
Each line is one published result; not all experiments were run side by side. Several values in a cell are separate wells, animals, samples, runs or records. Numbers after ± are the reported error.
prp N63Q: Ribosomal processing cysteine protease Prp (prp, Staphylococcus aureus, UniProt Q2FXS9, N63Q)
Faah: Fatty-acid amide hydrolase 1 (Faah, Rattus norvegicus, UniProt P97612)
Sequence of UniProt P97612 (whole entry, looked up): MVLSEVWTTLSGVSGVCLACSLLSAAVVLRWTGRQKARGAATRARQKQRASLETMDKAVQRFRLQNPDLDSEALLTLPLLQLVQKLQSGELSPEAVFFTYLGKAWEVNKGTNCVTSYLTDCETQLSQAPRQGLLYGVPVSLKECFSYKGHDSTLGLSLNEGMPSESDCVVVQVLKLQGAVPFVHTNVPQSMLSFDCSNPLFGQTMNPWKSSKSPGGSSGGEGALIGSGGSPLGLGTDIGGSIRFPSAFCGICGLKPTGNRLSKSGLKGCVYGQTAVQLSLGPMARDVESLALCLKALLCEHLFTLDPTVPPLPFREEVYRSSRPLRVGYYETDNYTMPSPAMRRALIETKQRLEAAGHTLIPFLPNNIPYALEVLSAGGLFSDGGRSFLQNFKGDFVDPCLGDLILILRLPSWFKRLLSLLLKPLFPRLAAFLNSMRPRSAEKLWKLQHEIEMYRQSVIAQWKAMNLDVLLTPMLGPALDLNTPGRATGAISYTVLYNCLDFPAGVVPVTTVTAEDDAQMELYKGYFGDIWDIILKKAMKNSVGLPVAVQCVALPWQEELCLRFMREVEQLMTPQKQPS
F2: Prothrombin (F2, Homo sapiens, UniProt P00734)
Sequence of UniProt Q15349 (whole entry, looked up): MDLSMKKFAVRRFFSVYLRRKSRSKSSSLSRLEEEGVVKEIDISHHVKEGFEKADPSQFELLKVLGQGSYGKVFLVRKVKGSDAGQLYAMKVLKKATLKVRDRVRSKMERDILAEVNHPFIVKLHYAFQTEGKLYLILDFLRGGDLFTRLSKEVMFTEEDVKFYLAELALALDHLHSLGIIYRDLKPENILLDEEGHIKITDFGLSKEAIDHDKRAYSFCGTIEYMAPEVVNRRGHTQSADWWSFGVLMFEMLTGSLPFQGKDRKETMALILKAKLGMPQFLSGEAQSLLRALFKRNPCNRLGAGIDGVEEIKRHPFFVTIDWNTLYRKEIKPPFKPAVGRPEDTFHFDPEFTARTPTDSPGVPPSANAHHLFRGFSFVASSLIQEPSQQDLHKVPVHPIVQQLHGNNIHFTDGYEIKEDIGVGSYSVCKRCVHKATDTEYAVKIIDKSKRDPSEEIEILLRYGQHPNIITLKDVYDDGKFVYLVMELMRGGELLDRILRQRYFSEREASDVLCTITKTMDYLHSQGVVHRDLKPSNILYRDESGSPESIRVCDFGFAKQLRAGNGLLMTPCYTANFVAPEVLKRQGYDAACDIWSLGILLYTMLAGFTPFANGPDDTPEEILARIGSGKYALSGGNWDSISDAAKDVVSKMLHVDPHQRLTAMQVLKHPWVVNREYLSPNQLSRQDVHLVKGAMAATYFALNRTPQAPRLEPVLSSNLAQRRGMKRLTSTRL
Sequence of UniProt Q13043 (whole entry, looked up): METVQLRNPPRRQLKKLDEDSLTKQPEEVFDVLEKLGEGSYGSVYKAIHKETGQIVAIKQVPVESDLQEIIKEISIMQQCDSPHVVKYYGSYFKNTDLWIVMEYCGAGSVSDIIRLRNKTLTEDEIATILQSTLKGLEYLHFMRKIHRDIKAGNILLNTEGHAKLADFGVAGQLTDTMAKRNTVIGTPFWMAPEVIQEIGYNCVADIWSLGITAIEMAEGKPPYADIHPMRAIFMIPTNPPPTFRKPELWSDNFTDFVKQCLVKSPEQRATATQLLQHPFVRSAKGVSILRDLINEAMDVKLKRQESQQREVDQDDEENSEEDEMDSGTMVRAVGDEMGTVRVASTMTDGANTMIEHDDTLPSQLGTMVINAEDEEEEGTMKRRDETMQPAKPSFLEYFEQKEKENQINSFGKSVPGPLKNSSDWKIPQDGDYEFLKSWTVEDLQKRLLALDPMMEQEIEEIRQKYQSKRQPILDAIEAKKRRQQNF
Sequence of UniProt P00811 (whole entry, looked up): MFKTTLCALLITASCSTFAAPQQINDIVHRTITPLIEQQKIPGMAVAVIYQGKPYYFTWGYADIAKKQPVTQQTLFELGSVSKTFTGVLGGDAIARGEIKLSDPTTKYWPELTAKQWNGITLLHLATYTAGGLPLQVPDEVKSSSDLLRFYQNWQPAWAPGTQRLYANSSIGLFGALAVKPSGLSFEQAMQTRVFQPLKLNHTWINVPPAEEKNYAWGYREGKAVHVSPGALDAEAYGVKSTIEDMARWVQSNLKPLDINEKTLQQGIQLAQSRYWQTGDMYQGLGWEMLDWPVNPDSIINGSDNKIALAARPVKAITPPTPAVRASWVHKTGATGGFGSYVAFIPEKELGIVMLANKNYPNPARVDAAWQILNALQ
Sequence of UniProt P50391 (whole entry, looked up): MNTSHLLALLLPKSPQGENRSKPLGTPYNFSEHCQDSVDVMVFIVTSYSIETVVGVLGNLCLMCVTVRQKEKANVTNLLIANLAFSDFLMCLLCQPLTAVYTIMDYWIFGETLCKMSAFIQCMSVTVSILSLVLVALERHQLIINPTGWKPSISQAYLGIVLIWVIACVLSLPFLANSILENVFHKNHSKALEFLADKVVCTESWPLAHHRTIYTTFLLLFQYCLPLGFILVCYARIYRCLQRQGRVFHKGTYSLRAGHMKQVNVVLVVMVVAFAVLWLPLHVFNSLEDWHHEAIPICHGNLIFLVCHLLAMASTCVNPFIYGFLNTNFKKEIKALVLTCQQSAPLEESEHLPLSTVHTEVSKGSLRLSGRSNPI
Sequence of UniProt Q9Y616 (whole entry, looked up): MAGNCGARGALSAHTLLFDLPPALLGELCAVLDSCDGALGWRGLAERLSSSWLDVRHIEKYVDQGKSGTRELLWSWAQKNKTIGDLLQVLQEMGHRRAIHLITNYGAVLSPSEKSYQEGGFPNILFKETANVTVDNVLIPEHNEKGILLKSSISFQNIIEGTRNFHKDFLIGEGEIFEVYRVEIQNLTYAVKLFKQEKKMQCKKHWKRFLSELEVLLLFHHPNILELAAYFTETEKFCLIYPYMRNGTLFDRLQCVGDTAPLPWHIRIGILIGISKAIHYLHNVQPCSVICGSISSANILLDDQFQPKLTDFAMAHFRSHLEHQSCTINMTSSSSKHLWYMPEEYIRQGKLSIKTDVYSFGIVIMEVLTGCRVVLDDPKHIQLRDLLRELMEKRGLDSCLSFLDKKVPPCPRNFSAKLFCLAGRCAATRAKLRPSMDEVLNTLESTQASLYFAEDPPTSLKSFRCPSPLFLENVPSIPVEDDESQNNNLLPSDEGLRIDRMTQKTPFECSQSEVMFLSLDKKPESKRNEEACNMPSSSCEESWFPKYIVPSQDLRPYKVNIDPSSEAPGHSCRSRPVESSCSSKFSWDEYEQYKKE
Sequence of UniProt P34969 (whole entry, looked up): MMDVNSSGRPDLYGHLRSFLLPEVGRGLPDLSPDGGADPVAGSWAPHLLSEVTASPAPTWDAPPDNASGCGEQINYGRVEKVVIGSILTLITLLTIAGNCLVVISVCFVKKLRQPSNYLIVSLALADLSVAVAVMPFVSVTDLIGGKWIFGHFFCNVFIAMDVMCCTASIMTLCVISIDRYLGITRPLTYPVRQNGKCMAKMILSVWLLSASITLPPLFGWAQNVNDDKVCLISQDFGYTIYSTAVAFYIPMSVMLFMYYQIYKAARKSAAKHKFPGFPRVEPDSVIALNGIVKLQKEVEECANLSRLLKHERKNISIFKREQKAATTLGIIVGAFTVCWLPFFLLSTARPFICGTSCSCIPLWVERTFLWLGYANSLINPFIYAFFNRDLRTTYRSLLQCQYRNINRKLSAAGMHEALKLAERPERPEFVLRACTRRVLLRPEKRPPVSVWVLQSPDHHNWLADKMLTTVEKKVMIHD
Sequence of UniProt P18031 (whole entry, looked up): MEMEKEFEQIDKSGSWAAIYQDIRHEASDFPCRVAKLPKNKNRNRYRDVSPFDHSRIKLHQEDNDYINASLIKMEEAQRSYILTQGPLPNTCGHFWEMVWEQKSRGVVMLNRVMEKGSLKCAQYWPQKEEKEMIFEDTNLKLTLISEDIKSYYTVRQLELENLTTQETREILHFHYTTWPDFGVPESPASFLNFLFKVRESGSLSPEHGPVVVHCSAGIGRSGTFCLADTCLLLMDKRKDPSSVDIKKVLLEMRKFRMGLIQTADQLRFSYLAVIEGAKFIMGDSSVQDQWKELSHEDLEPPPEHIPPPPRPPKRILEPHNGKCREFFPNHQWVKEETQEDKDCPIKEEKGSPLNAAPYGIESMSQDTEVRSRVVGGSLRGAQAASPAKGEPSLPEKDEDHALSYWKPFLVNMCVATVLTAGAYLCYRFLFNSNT
Sequence of UniProt Q09013 (whole entry, looked up): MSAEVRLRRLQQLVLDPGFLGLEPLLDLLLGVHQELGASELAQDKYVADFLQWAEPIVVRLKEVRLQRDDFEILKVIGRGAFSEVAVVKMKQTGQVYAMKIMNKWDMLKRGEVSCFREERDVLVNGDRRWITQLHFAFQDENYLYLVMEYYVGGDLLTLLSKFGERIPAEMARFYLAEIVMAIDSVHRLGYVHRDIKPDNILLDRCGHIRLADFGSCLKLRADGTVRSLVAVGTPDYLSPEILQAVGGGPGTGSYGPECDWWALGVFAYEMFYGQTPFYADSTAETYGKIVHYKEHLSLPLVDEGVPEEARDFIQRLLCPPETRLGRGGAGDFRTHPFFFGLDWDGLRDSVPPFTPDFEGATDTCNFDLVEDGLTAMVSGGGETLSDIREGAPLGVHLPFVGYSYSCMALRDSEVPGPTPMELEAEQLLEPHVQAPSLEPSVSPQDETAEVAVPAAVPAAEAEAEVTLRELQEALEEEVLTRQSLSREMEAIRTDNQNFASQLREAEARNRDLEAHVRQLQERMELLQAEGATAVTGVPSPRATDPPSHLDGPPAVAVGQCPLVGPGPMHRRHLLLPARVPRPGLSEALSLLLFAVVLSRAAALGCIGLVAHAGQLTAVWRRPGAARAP
Sequence of UniProt O75884 (whole entry, looked up): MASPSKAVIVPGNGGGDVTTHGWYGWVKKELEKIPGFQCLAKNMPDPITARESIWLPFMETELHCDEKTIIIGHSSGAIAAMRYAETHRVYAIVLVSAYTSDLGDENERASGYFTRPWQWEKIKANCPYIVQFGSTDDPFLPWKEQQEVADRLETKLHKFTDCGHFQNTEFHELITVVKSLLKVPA

CC(C)CCNC(=O)[C@H](CC(C)C)NC(=O)[C@H]1O[C@@H]1C(=O)O
inhibition (prp N63Q; enzyme activity; 10 µM, 21.4 nM enzyme dimer, added: 0.5 µM FITC-labelled peptide substrate): 20 ± 7.1%

Clc1cccc(-c2c[nH]c3ncnc(N4CCOCC4)c23)c1
inhibition (STK4 (Homo sapiens, UniProt Q13043); kinase activity, inhibitor, PhosphoSens kinetic; concentration not given, 2 h, added: ATP at Km): inhibited

O=C(Nc1cnccc1Cl)N1CCN(Cc2ccc3c(c2)OC(F)(F)O3)CC1
inhibition (Faah; probe labelling, inhibitor, competitive ABPP with azido-FP probe; rat brain soluble fraction; 10 µM): 99.6%

CC(C)N1CCC[C@H]1CNC(=O)c1cn(C2CCCC2)c(=O)c2c1c1ccccc1n2C
inhibition (GABAA receptor muscimol site, rat brain; radioligand binding; 10 µM): -1%

C[C@@]1(c2cc(-c3cncnc3)c(F)cc2F)CCSC(N)=N1
inhibition (prp N63Q; enzyme activity, inhibitor; 10 µM, prp 21.4 nM, added: FITC peptide substrate 0.5 µM): 17.3 ± 8.9%

c1ccc(C(NCCNC(c2ccccc2)c2ccccc2)c2ccccc2)cc1
inhibition (phosphodiesterase 4, human; enzyme activity; 10 µM, Eurofins selectivity panel): -12%

CC[C@H]1CN2CCc3cc(OC)c(OC)cc3[C@@H]2C[C@@H]1C[C@H]1NCCc2cc(OC)c(OC)cc21
inhibition (Serine hydrolase RBBP9 (Homo sapiens, UniProt O75884); competitive ABPP; 20 µM, Serine hydrolase RBBP9 400 nM, added: Pluronic F-127): no effect

C[C@@H]1N=C(c2ccccc2F)c2cc(Br)ccc2-n2cnc(C(=O)O)c21
inhibition (HTR7 (Homo sapiens, UniProt P34969); binding; 10 µM): 2.8 ± 4.2%

O=S(=O)(Nc1ccc2c(c1)B(O)OC2)c1ccc(Cl)cc1
inhibition (F2; enzyme activity; 50 µM, added: substrate 50 µM): ≤ 10%

O=C(Nc1cccnn1)N1CCC(=Cc2cccc(Oc3ccc(C(F)(F)F)cn3)c2)CC1
inhibition (Faah; probe labelling, inhibitor, competitive ABPP with azido-FP probe; rat brain soluble fraction; 0.1 µM): 99.7%

CN1CCc2nc(C(=O)N[C@@H]3C[C@@H](C(=O)N(C)C)CC[C@@H]3NC(=O)C(=O)Nc3ccc(Cl)cn3)sc2C1
inhibition (prp N63Q; enzyme activity, inhibitor; 10 µM, prp 21.4 nM, added: FITC peptide substrate 0.5 µM): 36.2 ± 7.4%

COc1cc(Nc2ncc(F)c(Nc3ccc4c(n3)NC(=O)C(C)(C)O4)n2)cc(OC)c1OC
inhibition (IRAK3 (Homo sapiens, UniProt Q9Y616); KINOMEscan; 10 µM): 96%

CNCCCC12CCC(c3ccccc31)c1ccccc12
inhibition (Potassium/sodium hyperpolarization-activated cyclic nucleotide-gated channel 1 (Homo sapiens, UniProt O60741); ion current; 3 µM): -2.49%

COCc1c(-c2cc3cc(C)cc(OC)c3s2)c2c(N)ncnn2c1CN1CCNC(=O)C1
inhibition (aldose reductase; enzyme activity; 10 µM): 10%

COc1ccc2c(O[C@@H]3C[C@H]4C(=O)N[C@]5(C(=O)NS(=O)(=O)C6CC6)C[C@H]5/C=C\CCCCN(C)C(=O)[C@@H]4C3)cc(-c3nc(C(C)C)cs3)nc2c1C
inhibition (prp N63Q; enzyme activity, inhibitor; 10 µM, prp 21.4 nM, added: FITC peptide substrate 0.5 µM): 21.3 ± 14.9%

O=C(Nc1ccc2c(c1)B(O)OC2)c1ccc(N2CCOCC2)cc1
inhibition (F2; enzyme activity; 50 µM, added: substrate 50 µM): ≤ 10%

Cc1c(-c2ccnn2C)cc(C(=O)NCc2ccc(S(C)(=O)=O)cn2)c(=O)n1-c1cccc(C(F)(F)F)c1
inhibition (prp N63Q; enzyme activity, inhibitor; 10 µM, prp 21.4 nM, added: FITC peptide substrate 0.5 µM): 34.5 ± 6.3%

COc1cccc(C(=O)Nc2ccc3c(c2)B(O)OC3)c1
inhibition (F2; enzyme activity; 50 µM, added: substrate 50 µM): ≤ 10%

Cn1cc(-c2cc(F)cc(N3CCn4c(cc5c4CCCC5)C3=O)c2CO)cc(Nc2ccc(N3CCN(C4COC4)CC3)cn2)c1=O
inhibition (RPS6KA2 (Homo sapiens, UniProt Q15349); kinase activity, inhibitor, SelectScreen kinase profiling; 0.1 µM, added: ATP at apparent Km): 12%

C=C(C)[C@@H]1CC[C@@H](C)[C@@H]2CCC(C)=C[C@@H]21
inhibition (PTPN1 (Homo sapiens, UniProt P18031); enzyme activity, inhibitor; 115 µM, added: pNPP substrate): ~50%

N[C@@H](CC(=O)N1CCn2c(nnc2C(F)(F)F)C1)Cc1cc(F)c(F)cc1F
inhibition (prp N63Q; enzyme activity, inhibitor; 10 µM, prp 21.4 nM, added: FITC peptide substrate 0.5 µM): 6.7 ± 35.1%

O=[N+]([O-])c1ccc2c(c1)B(O)OC2
inhibition (F2; enzyme activity; 50 µM, added: substrate 50 µM): ≤ 10%

O=c1ccc2ccccc2o1
inhibition (PTGS1 (Homo sapiens, UniProt P23219); enzyme activity; 10 µM): 4.41%

COc1ccc(N2C(=O)N(c3c(C)cccc3Cl)Cc3cnc(Nc4ccc(C5CCN(C)CC5)cc4OC)nc32)nc1
inhibition (EIF2AK2 (Homo sapiens, UniProt P19525); kinase activity; 0.5 µM): 5%

Cc1onc(-c2ccc(F)cc2)c1C(=O)Nc1ccc2c(c1)B(O)OC2
inhibition (F2; enzyme activity; 50 µM, added: substrate 50 µM): ≤ 10%

O=[N+]([O-])c1ccc(O)c(Cc2cc([N+](=O)[O-])ccc2O)c1
inhibition (hexokinase and G6P dehydrogenase; NADPH formation rate; up to 25 µM, added: ATP): no inhibition

O=C(CNC(=O)c1ccccc1)OC(C(=O)Nc1cc(C(F)(F)F)ccc1Cl)c1ccccc1 (stereo not drawn)
inhibition (Beta-lactamase (ampC, Escherichia coli K-12, UniProt P00811); enzyme activity, inhibitor; 10 µM, added: CENTA substrate): 0%

CN(C(=O)n1cnc(-c2ccc[n+]([O-])c2)c1)C1CCCCC1
inhibition (DMPK (Homo sapiens, UniProt Q09013); kinase activity, inhibitor; 10 µM, added: Axltide substrate): 5%

CC(=O)NC[C@H]1[C@H](O)[C@H](O)[C@@H]2[C@H](O)C[C@@H](CO)N21
inhibition (β-N-acetylglucosaminidase; enzyme activity, inhibitor, colorimetric; Canavalia ensiformis; 0.322 nM, added: p-nitrophenyl GlcNAc substrate): 34.6% and 33.1%

CC(NC(=O)[C@H](Cc1ccccc1)NC(=O)OCc1ccccc1)C(=O)CF (stereo partly drawn)
inhibition (prp N63Q; enzyme activity; 10 µM, 21.4 nM enzyme dimer, added: 0.5 µM FITC-labelled peptide substrate): -16 ± 4.1%

CN1CCN(c2cc(-c3ccncc3)c(-c3ccc4ccccc4c3)nn2)CC1
inhibition (NPY4R (Homo sapiens, UniProt P50391); antagonist, FLIPR; 10 µM): 18.8%

CNC(=O)[C@H](Cc1ccccc1)NC(=O)[C@H](CC(C)C)[C@H](CSc1cccs1)C(=O)NO
inhibition (prp N63Q; enzyme activity, inhibitor; 10 µM, prp 21.4 nM, added: FITC peptide substrate 0.5 µM): 29.9 ± 5.6%

CC[C@H](C)[C@H](NC(=O)[C@@H](NC(=O)[C@H](N)Cc1ccccc1)C(C)C)C(=O)N[C@@H](C)C(N)=O
inhibition (APP (Homo sapiens, UniProt P05067); amyloid-beta aggregation, thioflavin T fluorescence; 2.0 µM, 24 h, added: 2 µM amyloid-beta): 100%

CN(CCN1CCC(OC(=O)Nc2ccccc2-c2ccccc2)CC1)C(=O)c1ccc(CN2CCC(C(N)=O)CC2)cc1
inhibition (rat central benzodiazepine site; radioligand binding; 1 µM, added: [3H]flunitrazepam 0.4 nM): 0%

Nc1ccc(C(=O)Nc2ccc3c(c2)B(O)OC3)cc1
inhibition (F2; enzyme activity; 50 µM, added: substrate 50 µM): ≤ 10%

Cn1cccc1-c1cccnc1
inhibition (ADRB2 (Homo sapiens, UniProt P07550); binding; 50 µM): 3.26%

Some of these lines once more:
Cn1cc(-c2cc(F)cc(N3CCn4c(cc5c4CCCC5)C3=O)c2CO)cc(Nc2ccc(N3CCN(C4COC4)CC3)cn2)c1=O
inhibition (RPS6KA2 (Homo sapiens, UniProt Q15349); kinase activity, inhibitor, SelectScreen kinase profiling; 0.1 µM, added: ATP at apparent Km): 12%

O=[N+]([O-])c1ccc2c(c1)B(O)OC2
inhibition (F2; enzyme activity; 50 µM, added: substrate 50 µM): ≤ 10%

CN(C(=O)n1cnc(-c2ccc[n+]([O-])c2)c1)C1CCCCC1
inhibition (DMPK (Homo sapiens, UniProt Q09013); kinase activity, inhibitor; 10 µM, added: Axltide substrate): 5%

CC(NC(=O)[C@H](Cc1ccccc1)NC(=O)OCc1ccccc1)C(=O)CF (stereo partly drawn)
inhibition (prp N63Q; enzyme activity; 10 µM, 21.4 nM enzyme dimer, added: 0.5 µM FITC-labelled peptide substrate): -16 ± 4.1%
